Experimental data pooled from the literature.
A part holds a random share of what one study measured. Substitutions count along the parent as printed.

Sample 1
Target: Histone acetyltransferase KAT6A, winged helix 1, GST fusion (KAT6A, Homo sapiens, UniProt Q92794, residues 1-85)
Method: protein binding microarray
Molecule type: double-stranded DNA, one strand shown
Sample: in vitro
Tested at: not given
Notes: 8-mer, flanks averaged, mean of 2 arrays, mostly near background
Baseline: not given
Reading: higher = stronger binding
Residues (chain): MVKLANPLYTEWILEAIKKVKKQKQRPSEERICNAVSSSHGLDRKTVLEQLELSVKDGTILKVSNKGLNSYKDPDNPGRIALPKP
Oligonucleotide	E-score
GTCCAAAA	-0.073
CGCTCGCA	0.267
TCAGTTCA	-0.0543
CATTCCCA	-0.115
TCATTAAA	-0.0804
ACAGCTTC	-0.167
AGACAGGA	-0.306
AAGTTGCC	0.0166
ACCACACT	-0.175
GTATTGTA	0.0517
CGATTAAC	0.0824
CATTAAAG	-0.183
AGTCTGCG	-0.0412
CCCATTAG	-0.222
TGATAAAA	-0.0554
ATGCGGTG	0.149
CTCACGTC	-0.0736

Sample 2
Target: Sal-like protein 4, full length isoform B (SALL4, Homo sapiens, UniProt Q9UJQ4-2, residues 1-616)
Method: universal PBM
Molecule type: double-stranded DNA, one strand shown
Sample: in vitro
Tested at: not given
Notes: 8-mer, flanks averaged, mean of replicates
Reading: higher = stronger binding
Oligonucleotide	E-score
GTCCGCAC	-0.217
GTCAAGCA	-0.258
CTGACAAC	-0.139
ACCCTACA	0.0683
AATAGTGA	0.223
AACGGCCA	0.0458
GAAAGTCC	-0.167
GACACGGC	-0.181
AAAACCAG	-0.0474
ATGTTAAG	0.103
ACGTCTTG	0.0215
CGTCCCAA	-0.117
GTGTCAAA	0.162
CCAGCGGG	-0.257
ATCCATTC	0.122
GCCCGTCC	-0.372
GACCACTA	-0.0261

Sample 3
Target: ABI1, truncated, D143A, DHFR fusion (Arabidopsis thaliana)
Method: DHFR PCA, deep sequencing
Sample: yeast
Notes: methotrexate growth selection, single substitutions
With: (+)-ABA 17 µM
Baseline: wild-type fitted maximum
Reading: higher = stronger binding
Parent: PYL1, truncated, DHFR fusion (Arabidopsis thaliana); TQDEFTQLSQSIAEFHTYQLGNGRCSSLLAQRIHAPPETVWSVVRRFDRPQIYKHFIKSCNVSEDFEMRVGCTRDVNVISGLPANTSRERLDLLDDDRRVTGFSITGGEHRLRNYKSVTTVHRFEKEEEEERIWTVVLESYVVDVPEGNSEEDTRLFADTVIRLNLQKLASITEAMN
Change	relative binding score [%]
K54D	-6
L8A	32
R155T	72.5
V40P	-12.2
H122M	-1.53
C72Y	43.6
V70S	48.5
G148F	31.5
T160Y	76.6
L28Q	40
L166F	11.1
R155Q	67.4
S150G	47.3
R46H	43.9

Sample 4
Target: Centromere-binding protein 1, full length, N-terminal tag (CBF1, Saccharomyces cerevisiae, UniProt P17106, residues 1-351)
Chain of UniProt P17106 (whole entry, looked up): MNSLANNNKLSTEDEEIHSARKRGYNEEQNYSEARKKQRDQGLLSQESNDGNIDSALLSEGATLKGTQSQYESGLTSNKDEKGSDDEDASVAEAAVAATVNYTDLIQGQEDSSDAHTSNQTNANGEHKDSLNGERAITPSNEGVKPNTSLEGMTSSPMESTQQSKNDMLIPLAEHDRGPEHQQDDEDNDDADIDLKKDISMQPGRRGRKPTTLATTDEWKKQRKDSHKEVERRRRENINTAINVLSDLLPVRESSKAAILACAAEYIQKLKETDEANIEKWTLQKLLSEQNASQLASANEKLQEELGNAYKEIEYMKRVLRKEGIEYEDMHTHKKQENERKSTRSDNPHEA
Method: protein-binding microarray
Molecule type: double-stranded DNA, one strand shown
Sample: in vitro
Tested at: 0.8 µM
Notes: whole 60-bp probe, no competitor
Reading: higher = stronger binding
Oligonucleotide	fluorescence intensity [a.u.]
CTATTATGGTATCACGACATCACCACAACAGAGTTCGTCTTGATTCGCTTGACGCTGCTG	1120
GAATTTGATAGGAACGACGTGGTGTAGTGAATTTAGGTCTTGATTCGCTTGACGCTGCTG	526
GAAATGATCAAAATGCGTGTGGGCGGCTACAATTAGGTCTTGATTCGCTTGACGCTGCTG	580
CTACAGCCAATCAAACACGAGGAATGTGGGATGTTCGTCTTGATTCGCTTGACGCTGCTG	606
CTATTATGAGACTGTATCATGACCATACCTTATTTCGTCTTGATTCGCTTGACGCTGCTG	553
GAATTGGATTTTCGTGGTGAGGGGACCTGAGGGTAGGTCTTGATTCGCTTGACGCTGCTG	508
CTAGGTTGTTTTCCTATGATGACCAACCTTTGGTTCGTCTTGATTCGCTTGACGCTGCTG	481
CTAGCGCTATTTTGTCACCTTTAACTTGGCATATTCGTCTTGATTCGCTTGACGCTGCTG	539
GAAAGCTTACAATTGCACGTAGAGACTAGTATATAGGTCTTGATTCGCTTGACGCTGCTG	507
GAACAGGGAGTTCATCATCAGAATGATTAGTATTAGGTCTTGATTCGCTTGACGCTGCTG	527
CCTAACTACTATAATGACGTCAAATAGCTTCGTACAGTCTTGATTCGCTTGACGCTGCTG	495
GAAATATCGATATACATCATGATGAGAGCGCCTTAGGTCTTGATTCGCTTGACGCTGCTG	505
GAAGGTAATCCCACCCATGTGGCCGTGCCATTCTAGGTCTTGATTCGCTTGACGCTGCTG	542
TGTACGAAGCTATCACGTGCAACTATAGTAGTTAGGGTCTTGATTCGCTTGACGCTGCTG	10400
CTATGCTCCACCTGCGAACACGTGGAAGTCGCATTCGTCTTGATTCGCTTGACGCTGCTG	3750
GAAAGCTTTTTCGGTCATGAAGTCTGGTGGCATTAGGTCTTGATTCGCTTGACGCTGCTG	560
GAAAAGCGTCTGAACCACATGCTTCTTCTATCTTAGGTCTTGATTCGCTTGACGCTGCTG	606
GAAATGTGAACACGTCATCATAGATGGTTGTTGTAGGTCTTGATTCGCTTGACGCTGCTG	546

Sample 5
Target: CCNF, cyclin fold, Cln2 fusion (human)
Method: yeast growth competition, sequencing
Sample: yeast
Notes: weak parent motif
Baseline: not given
Reading: higher = stronger binding
Parent: RP1L1 docking peptide (human); TLGLGPLSFTLED
Change	normalised enrichment score
S8A	-0.531
F9A	-0.341
T10A	-0.478
L2A	-0.694
G3A	-0.59
D13A	-0.313

Sample 6
Target: Interferon regulatory factor 3, full length, phosphomimetic (IRF3, Homo sapiens, UniProt Q14653, residues 1-427, S386D/S396D/S398D/S402D/T404D/S405D)
Method: protein-binding microarray
Molecule type: double-stranded DNA, one strand shown
Sample: in vitro
Tested at: 2540 nM top
Notes: 60-bp whole probe
With: salmon DNA 0.4 mg/ml
Baseline: random background probes
Reading: higher = stronger binding
Shared flanks, not repeated: GCCTAGCAC … GTCTTGATTCGCTTGACGCTGCTG
Residues (chain): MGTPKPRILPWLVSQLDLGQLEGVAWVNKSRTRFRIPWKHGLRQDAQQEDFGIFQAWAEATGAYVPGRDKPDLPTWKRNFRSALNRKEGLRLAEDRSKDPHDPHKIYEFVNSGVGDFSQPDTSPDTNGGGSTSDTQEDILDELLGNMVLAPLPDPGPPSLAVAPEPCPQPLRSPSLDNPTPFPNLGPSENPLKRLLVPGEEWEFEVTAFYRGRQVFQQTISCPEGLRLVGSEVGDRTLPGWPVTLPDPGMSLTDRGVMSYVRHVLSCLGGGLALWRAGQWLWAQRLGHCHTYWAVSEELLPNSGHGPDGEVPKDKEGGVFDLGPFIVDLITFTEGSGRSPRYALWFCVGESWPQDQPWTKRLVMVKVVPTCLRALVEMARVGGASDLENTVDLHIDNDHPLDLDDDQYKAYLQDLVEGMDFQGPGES
Oligonucleotide	fitted relative affinity [z-score]
GACGAACTGGGGTATCGGGACGTGCTA	-0.269
TCACCTCTGCTCCTCTTACTGTGCTAG	0.23
TCAAAAAATGGAAATCTAACTGTGCTA	-0.0142
GAGGGTATCGACTTTCGGGACGTGCTA	0.445
TCATTTCTAATGTTTTTTACTGTGCTA	1.88
GACGATTTCAGTCTCGAAACGTGCTAG	2.63
TTAGATTTCAGACTGAATTAGTGCTAG	0.914
TTCATTATTGTCTTCCCCATGTGCTAG	0.271
GTAGGTCTCCTTCTCCTTTAGTGCTAG	4.28
GACGGACTACTACTGCTGACGTGCTAG	-0.314
GACGATTTCGGGACTGGAAACGTGCTA	1.96
TTAGGTATCGGACTGCGTTAGTGCTAG	1.22
TTAGAGCTCCTCCTTCTCTAAGTGCTA	1.03
TGAGATCTCAGACTGGATTAGTGCTAG	-0.335
GTCACTCTCAGAATCTCTCAGTGCTAG	0.876
TTAGGTATCGGTTCCGGTTAGTGCTAG	6.46
TTAGGACTGGGTAACGGTTAGTGCTAG	-0.537
TCATTTTTTTAATTGAGACTGTGCTAG	1.1

Repeated from above (sample 2):
Oligonucleotide	E-score
ACGTCTTG	0.0215
GTCAAGCA	-0.258
GAAAGTCC	-0.167
AAAACCAG	-0.0474
GTCCGCAC	-0.217
